Measurements from different studies.
Numbered parts are unrelated; each lists some results of a single study. Positions count from the first letter of the parent shown.
Sequence of UniProt Q9UQM7 (whole entry, looked up): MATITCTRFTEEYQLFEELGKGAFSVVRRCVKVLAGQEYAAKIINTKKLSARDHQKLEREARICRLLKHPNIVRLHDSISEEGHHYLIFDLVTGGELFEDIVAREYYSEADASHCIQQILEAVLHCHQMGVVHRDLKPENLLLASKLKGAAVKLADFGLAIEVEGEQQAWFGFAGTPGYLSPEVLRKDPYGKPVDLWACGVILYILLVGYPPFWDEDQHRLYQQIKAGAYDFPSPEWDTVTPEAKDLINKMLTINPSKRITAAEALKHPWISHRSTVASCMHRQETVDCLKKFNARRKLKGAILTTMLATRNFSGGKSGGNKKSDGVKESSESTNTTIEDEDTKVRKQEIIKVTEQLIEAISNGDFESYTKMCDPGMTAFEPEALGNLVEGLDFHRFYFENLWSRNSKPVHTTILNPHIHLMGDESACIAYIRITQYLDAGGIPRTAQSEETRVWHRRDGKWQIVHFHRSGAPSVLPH
Sequence of UniProt P15056 (whole entry, unmodified, looked up): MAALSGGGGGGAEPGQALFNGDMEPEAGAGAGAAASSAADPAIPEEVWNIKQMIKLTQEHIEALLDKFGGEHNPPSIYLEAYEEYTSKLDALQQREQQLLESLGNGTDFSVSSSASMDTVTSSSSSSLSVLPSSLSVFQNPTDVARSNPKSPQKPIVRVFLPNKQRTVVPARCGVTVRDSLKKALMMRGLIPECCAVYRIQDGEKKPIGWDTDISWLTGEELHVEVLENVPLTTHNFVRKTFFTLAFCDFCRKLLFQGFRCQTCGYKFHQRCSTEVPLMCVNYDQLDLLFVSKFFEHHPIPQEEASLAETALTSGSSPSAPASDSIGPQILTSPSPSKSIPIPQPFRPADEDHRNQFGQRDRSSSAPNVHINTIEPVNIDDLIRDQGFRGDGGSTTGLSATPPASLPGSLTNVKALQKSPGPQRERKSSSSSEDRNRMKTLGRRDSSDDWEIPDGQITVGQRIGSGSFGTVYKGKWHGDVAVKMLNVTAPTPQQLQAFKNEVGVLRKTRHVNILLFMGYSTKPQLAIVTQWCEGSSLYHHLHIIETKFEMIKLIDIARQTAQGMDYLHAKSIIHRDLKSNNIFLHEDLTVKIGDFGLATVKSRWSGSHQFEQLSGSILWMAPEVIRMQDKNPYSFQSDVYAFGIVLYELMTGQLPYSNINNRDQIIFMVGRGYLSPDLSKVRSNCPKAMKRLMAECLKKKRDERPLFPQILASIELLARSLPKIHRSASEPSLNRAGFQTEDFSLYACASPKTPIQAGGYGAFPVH
Sequence of UniProt P42685 (whole entry, looked up): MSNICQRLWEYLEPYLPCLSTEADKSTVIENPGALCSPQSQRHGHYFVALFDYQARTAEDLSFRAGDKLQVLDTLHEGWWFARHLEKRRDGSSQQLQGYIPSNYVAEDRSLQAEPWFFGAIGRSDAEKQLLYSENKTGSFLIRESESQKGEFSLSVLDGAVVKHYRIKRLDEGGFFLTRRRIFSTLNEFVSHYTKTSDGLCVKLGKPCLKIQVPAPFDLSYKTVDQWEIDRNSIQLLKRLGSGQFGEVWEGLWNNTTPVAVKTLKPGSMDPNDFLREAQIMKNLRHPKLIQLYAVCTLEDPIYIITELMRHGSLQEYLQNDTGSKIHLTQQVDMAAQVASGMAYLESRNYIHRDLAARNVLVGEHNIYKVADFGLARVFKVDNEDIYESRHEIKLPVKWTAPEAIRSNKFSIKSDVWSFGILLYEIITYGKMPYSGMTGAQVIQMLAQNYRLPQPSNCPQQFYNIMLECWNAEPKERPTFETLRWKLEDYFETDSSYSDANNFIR

Set 1 — tested at: 1 µM
Structure (SMILES): Cn1cncc1[C@@](O)(COc1ccc(C#N)cc1-c1ccc(OC(F)(F)F)cc1)c1ccc(C#N)cc1
For Serine/threonine-protein kinase ICK (CILK1, Homo sapiens, UniProt Q9UPZ9); binding, competition with immobilised ligand: remaining binding read 75%.
It gave 95% for remaining binding (Beta-adrenergic receptor kinase 1 (GRK2, Homo sapiens, UniProt P25098); cell-free assay, competition with immobilised ligand).
Mitogen-activated protein kinase kinase kinase kinase 3 (MAP4K3, Homo sapiens, UniProt Q8IVH8); cell-free assay, competition with immobilised ligand — remaining binding: 100%.
It gave 77% for remaining binding (Mitogen-activated protein kinase 8 (MAPK8, Homo sapiens, UniProt P45983); cell-free assay, competition with immobilised ligand).
Epidermal growth factor receptor (EGFR, Homo sapiens, UniProt P00533, L861Q); cell-free assay, competition with immobilised ligand — remaining binding: 100%.
It gave 100% for remaining binding (Death-associated protein kinase 1 (DAPK1, Homo sapiens, UniProt P53355); cell-free assay, competition with immobilised ligand).
For TGF-beta receptor type-1 (TGFBR1, Homo sapiens, UniProt P36897); cell-free assay, competition with immobilised ligand: remaining binding read 78%.
1-phosphatidylinositol 3-phosphate 5-kinase (PIKFYVE, Homo sapiens, UniProt Q9Y2I7); cell-free assay, competition with immobilised ligand — remaining binding: 100%.
The remaining binding was 100% (Serine/threonine-protein kinase PRP4 homolog (PRPF4B, Homo sapiens, UniProt Q13523); cell-free assay, competition with immobilised ligand).
For Mitogen-activated protein kinase kinase kinase kinase 5 (MAP4K5, Homo sapiens, UniProt Q9Y4K4); cell-free assay, competition with immobilised ligand: remaining binding read 100%.
It gave 85% for remaining binding (Calcium/calmodulin-dependent protein kinase type 1G (CAMK1G, Homo sapiens, UniProt Q96NX5); cell-free assay, competition with immobilised ligand).
The remaining binding was 96% (Serine/threonine-protein kinase MRCK gamma (CDC42BPG, Homo sapiens, UniProt Q6DT37); competition binding).
It gave 81% for remaining binding (Serine/threonine-protein kinase MRCK alpha (CDC42BPA, Homo sapiens, UniProt Q5VT25); cell-free assay, competition with immobilised ligand).
It gave 100% for remaining binding (Serine/threonine-protein kinase B-raf (BRAF, Homo sapiens, UniProt P15056, V600E); cell-free assay, competition with immobilised ligand).
cAMP-dependent protein kinase catalytic subunit beta (PRKACB, Homo sapiens, UniProt P22694); cell-free assay, competition with immobilised ligand — remaining binding: 100%.
It gave 88% for remaining binding (Tyrosine-protein kinase ABL1, non-phosphorylated (ABL1, Homo sapiens, UniProt P00519, H396P); cell-free assay, competition with immobilised ligand).
It gave 95% for remaining binding (Phosphatidylinositol 4-phosphate 3-kinase C2 domain-containing subunit beta (PIK3C2B, Homo sapiens, UniProt O00750); cell-free assay, competition with immobilised ligand).
Calcium/calmodulin-dependent protein kinase type II subunit gamma (CAMK2G, Homo sapiens, UniProt Q13555); cell-free assay, competition with immobilised ligand — remaining binding: 98%.
It gave 84% for remaining binding (Calcium/calmodulin-dependent protein kinase type II subunit alpha (CAMK2A, Homo sapiens, UniProt Q9UQM7); cell-free assay, competition with immobilised ligand).
Dual specificity tyrosine-phosphorylation-regulated kinase 2 (DYRK2, Homo sapiens, UniProt Q92630); cell-free assay, competition with immobilised ligand — remaining binding: 89%.
The remaining binding was 100% (Tyrosine-protein kinase FRK (FRK, Homo sapiens, UniProt P42685); cell-free assay, competition with immobilised ligand).

Set 2 — effect on: peptide-MHC binding; molecule type: peptide; tested at: concentration not given
Target: HLA class I histocompatibility antigen, C alpha chain, allele C*04:01 (Homo sapiens, UniProt P10321)
For `RRLHRLLLM`, binding read “inactive”.
Under binding, `AEFPVGSTA` is recorded as “inactive”.
For `SVQWFRLPR`, binding read “inactive”.
For `VPIAWAAA`, binding read “inactive”.
Under binding, `FTFDLTALK` is recorded as “inactive”.
`YFDDVTAFL` — result for binding: “active”.
`MALATGLWW`: binding “inactive”.
For `SYSTPALTL`, binding read “inactive”.

Set 3 — target: CCNE1, cyclin fold, Cln2 fusion (human); method: yeast growth competition, sequencing; matrix: yeast; notes: strong parent motif; baseline: not given; direction: higher = stronger binding; starting sequence: viral docking peptide; CKVKRKLFGSENI
For `CKVKRKLAGSENI [F8A]`, “normalised enrichment score” read 0.38.
For `CKVKRKLLGSENI [F8L]`, “normalised enrichment score” read 0.0955.
Under “normalised enrichment score”, `CKVKRKLFGSEAI [N12A]` is recorded as 4.99.
`CKVKRALFGSENI [K6A]` — result for “normalised enrichment score”: 3.05.
Under “normalised enrichment score”, `CKVKAKAFGSENI [R5A L7A]` is recorded as 0.191.

Further values, each from its own experiment
POLQ ATPase domain: DNA polymerase theta, ATPase domain (POLQ, Homo sapiens, UniProt O75417)
Sequence of UniProt O75417 (whole entry, unmodified, looked up): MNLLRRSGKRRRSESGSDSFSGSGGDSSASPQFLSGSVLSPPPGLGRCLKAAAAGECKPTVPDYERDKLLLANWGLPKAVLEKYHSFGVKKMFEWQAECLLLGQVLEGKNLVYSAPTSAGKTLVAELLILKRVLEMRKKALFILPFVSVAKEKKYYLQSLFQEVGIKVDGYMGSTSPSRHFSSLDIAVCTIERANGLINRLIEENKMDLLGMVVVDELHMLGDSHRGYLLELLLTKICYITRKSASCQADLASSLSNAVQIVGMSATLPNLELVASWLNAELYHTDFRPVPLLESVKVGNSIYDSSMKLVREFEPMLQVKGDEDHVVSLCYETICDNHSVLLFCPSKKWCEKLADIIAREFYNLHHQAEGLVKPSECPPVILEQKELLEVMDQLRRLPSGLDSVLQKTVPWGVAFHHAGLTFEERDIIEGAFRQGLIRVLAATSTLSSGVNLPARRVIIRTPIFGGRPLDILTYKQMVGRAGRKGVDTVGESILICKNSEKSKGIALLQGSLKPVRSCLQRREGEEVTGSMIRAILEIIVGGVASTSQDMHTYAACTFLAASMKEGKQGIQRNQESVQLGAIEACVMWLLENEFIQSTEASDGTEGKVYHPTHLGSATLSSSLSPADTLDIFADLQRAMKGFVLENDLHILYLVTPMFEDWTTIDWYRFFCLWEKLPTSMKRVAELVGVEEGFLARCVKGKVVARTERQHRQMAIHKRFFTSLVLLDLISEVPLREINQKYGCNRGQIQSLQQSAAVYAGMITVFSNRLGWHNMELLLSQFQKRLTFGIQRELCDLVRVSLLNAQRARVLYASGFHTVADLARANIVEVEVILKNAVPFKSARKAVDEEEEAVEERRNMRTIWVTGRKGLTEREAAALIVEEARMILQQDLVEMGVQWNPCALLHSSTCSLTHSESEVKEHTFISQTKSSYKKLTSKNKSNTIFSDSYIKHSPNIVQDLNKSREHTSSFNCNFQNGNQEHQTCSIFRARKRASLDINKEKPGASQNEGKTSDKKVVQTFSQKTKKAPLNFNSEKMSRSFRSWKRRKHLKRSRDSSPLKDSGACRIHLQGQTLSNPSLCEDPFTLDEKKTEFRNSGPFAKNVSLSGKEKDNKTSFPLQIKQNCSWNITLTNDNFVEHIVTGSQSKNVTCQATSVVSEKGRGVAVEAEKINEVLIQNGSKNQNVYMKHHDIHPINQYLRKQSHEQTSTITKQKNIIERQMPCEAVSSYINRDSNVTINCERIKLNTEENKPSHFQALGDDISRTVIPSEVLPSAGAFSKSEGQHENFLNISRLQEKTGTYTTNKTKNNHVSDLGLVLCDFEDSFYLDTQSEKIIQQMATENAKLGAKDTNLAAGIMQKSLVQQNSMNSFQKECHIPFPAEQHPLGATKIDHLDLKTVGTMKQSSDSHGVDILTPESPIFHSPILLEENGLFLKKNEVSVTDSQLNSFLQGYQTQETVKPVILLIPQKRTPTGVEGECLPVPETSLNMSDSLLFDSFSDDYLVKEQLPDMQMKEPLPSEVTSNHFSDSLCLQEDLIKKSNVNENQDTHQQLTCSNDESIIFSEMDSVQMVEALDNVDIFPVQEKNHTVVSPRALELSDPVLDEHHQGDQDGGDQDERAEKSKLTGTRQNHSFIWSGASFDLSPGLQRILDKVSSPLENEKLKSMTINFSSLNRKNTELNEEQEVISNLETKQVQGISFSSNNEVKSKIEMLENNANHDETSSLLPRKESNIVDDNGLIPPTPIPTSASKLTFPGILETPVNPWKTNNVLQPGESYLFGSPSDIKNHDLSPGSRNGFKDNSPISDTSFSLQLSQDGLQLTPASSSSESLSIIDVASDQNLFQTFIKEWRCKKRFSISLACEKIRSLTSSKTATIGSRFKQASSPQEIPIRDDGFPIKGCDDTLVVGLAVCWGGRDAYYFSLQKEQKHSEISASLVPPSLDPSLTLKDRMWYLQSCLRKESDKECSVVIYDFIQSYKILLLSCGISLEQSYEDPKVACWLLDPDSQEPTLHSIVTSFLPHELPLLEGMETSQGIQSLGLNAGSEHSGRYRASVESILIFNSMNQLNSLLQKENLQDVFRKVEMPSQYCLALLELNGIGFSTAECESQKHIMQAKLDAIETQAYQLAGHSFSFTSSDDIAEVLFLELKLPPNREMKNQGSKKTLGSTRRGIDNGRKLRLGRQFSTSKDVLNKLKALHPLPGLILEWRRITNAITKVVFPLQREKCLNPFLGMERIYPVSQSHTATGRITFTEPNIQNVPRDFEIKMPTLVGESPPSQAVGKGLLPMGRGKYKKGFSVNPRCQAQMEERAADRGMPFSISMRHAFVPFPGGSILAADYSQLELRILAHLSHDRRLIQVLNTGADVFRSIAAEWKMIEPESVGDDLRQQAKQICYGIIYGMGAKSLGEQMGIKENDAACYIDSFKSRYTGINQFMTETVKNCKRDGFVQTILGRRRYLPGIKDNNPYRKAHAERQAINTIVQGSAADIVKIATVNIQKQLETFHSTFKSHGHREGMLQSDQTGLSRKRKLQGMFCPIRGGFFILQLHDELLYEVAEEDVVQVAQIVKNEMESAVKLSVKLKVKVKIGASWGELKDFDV
ADRB1: Beta-1 adrenergic receptor (ADRB1, Homo sapiens, UniProt P08588)
Sequence of UniProt P08588 (whole entry, looked up): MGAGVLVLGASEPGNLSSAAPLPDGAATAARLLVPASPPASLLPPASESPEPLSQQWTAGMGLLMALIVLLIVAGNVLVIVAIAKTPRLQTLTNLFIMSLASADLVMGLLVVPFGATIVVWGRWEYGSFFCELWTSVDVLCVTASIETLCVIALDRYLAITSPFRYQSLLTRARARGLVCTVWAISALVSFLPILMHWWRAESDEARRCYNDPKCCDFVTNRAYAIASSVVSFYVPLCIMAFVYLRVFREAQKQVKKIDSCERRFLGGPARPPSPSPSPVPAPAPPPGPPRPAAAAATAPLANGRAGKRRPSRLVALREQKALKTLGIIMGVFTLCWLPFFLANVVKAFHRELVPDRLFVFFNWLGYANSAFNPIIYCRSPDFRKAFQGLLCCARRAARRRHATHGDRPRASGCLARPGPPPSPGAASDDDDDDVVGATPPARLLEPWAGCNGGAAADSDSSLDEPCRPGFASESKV
CAMK2A: Calcium/calmodulin-dependent protein kinase type II subunit alpha (CAMK2A, Homo sapiens, UniProt Q9UQM7)
`CC[C@H](C)C[C@H](C)CCCCCCCCC(=O)N[C@H]1C[C@@H](O)[C@@H](NCCN)NC(=O)[C@@H]2[C@@H](O)CCN2C(=O)[C@H]([C@H](O)CCN)NC(=O)[C@H]([C@H](O)[C@@H](O)c2ccc(O)cc2)NC(=O)[C@@H]2C[C@@H](O)CN2C(=O)[C@H]([C@@H](C)O)NC1=O` has a remaining activity of 96.3% (POLQ ATPase domain; enzyme activity, inhibitor; 77 µM; baseline: untreated).
For `CC(C)[C@H]1C(=O)N2CCC[C@H]2[C@]2(O)O[C@](NC(=O)[C@@H]3C=C4c5cccc6[nH]cc(c56)C[C@H]4N(C)C3)(C(C)C)C(=O)N12`, the IC50 was at least 100 µM (ADRB1; antagonist).
For `CNC(C)(C)Cc1ccccc1`, the remaining activity was 96.3% (POLQ ATPase domain; enzyme activity, inhibitor; 77 µM; baseline: untreated).
The IC50 of `CC[C@H](C)C(NC(=O)[C@H](CCC(=O)O)NC(=O)[C@@H](NC(C)=O)C(C)C)C(=O)N[C@@H](CC(=O)O)C(=O)Nc1ccc2c(C)cc(=O)oc2c1` (stereo partly drawn) is reported as at least 100 µM (ADRB1; antagonist).
The inhibition of `Cc1cc(=O)[nH]c(=O)[nH]1` is reported as -24% (CAMK2A; enzyme activity, inhibitor; 10 µM).
`C[C@]12CC[C@H](O)CC1=CC[C@@H]1[C@@H]2CC[C@@]2(C)[C@H]1CC[C@]2(C)O` has an inhibition of -6.8% (Sarcocystis neurona; parasite growth; 10 µM, 96 h).
For `Cc1cc(=O)c2c(O)c3c(O)cc(O)c4c5c(O)cc(O)c6c(O)c7c(=O)cc(C)c8c1c2c(c34)c(c65)c78`, the inhibition was 3% (CAMK2A; enzyme activity, inhibitor; 10 µM).
With `NC1=NC(=O)C(c2ccccc2)O1` (stereo not drawn) the inhibition was -13.3% (Sarcocystis neurona; parasite growth; 10 µM, 96 h).

Repeated from above (set 1):
It gave 95% for remaining binding (Beta-adrenergic receptor kinase 1 (GRK2, Homo sapiens, UniProt P25098); cell-free assay, competition with immobilised ligand).
It gave 95% for remaining binding (Phosphatidylinositol 4-phosphate 3-kinase C2 domain-containing subunit beta (PIK3C2B, Homo sapiens, UniProt O00750); cell-free assay, competition with immobilised ligand).
It gave 85% for remaining binding (Calcium/calmodulin-dependent protein kinase type 1G (CAMK1G, Homo sapiens, UniProt Q96NX5); cell-free assay, competition with immobilised ligand).
For TGF-beta receptor type-1 (TGFBR1, Homo sapiens, UniProt P36897); cell-free assay, competition with immobilised ligand: remaining binding read 78%.
